Measured values collected from several papers.
Every numbered part comes from another study and shows a few of its results, in no order. Substitutions count along the parent as printed.

Block 1 — method: RNA Bind-n-Seq; molecule type: RNA; sample: in vitro; concentration: 365 nM; baseline: no-protein control; reading: higher = stronger binding
Target: RNA binding protein fox-1 homolog 2, RRM domain, GST-SBP tag (RBFOX2, Homo sapiens, UniProt O43251-10, residues 100-194)
Notes: natural RNA segment, single round, ends assumed
Constant ends, left off below: GGGAGUUCUACAGUCCGACGAUC … UGGAAUUCUCGGGUGCCAA
Construct (chain): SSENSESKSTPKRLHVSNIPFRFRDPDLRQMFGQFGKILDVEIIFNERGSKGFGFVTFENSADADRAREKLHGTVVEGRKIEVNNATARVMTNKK
For `UAUUGUUGUUUCUCAUCAUUCUCACCUCGAGGAAGAGCAAGAGACUUAACCAGCAGGGCAAAUUCCACUUGCAGACAUCCUUUACUCUGUGGUCCCUUGUUAGUACCGAA`, “RBNS enrichment (R)” read 0.288.
For `CGCUGGAAAUCCAGUUCUUCAGGAACUGCCUUCCUCCCUAAUUCUGCUCUUGCUUUUCAGAGAGCCAUCAUGGUCAUGUCAUGCUGAGGUCACAUGUAUAAAAUUAGCUU`, “RBNS enrichment (R)” read 0.89.
Under “RBNS enrichment (R)”, `CUCCCGAGAGGAACCAGCCCGGUAAGAGGGCACACGCUGAUGCGGCUUCCCGGUCCCUCCGCGUGUGCCGAUUCCAGAUGACCUUCCAGUGUCCCCAAGGUUCUUCCAUC` is recorded as 0.213.
`UUCUCUGUAGCUCCAGGGGAAUCUUUUUCUCUAAAACGUUUAUGCCCUCGCUUUGGCUAGAAACACAUUAACUGGUUUACUCAUUGGGAAUCCAGCAUAUUUAAGAGGUA` — result for “RBNS enrichment (R)”: 0.46.
`AAAGGUCUUUUAUGGGGAAGAAAGUAAAUGUAUGAAAUAAUAAAUGUGUGACAUUUAUAGGGAAUGUUGGCUCUGAACAAACUUUUGAAAACUUGGUUGACAAAAUUUUG`: “RBNS enrichment (R)” 8.28.
`GUGGAUAUUGGAGUUGGGUUGAUUUUCCUGAAUUGGUUCCUAUAGGAUCCUCCAAUUUUGGAUCUUCUACAGAUCCCCCAGUGUUCUAGUUUAGUAAACUGGCCCAUUUG` — result for “RBNS enrichment (R)”: 0.271.
For `GAAAUGCAGUAAAGCCAGGGAAUUUACAAUAACAUUUCCGUUUCCAUCAUUGAAUAAGUCUUAUUCAGUCAUCGGUGAGGUUAAUGCACUAAUCAUGGAUUUUUUGAACA`, “RBNS enrichment (R)” read 0.285.
For `ACCACCACCCCUCCCUGGCCAUCCUCCUGGAAUGUGGUCUGCCCUCCACCAGAGCUCCUGCCUGCCAGGACUGGACCAGAGCAGCCAGGCUGGGGCCCCUCUGUCUCAAC`, “RBNS enrichment (R)” read 0.669.
`CACUGGGUUAUUUCUCCGUCCUCAUUGUCAUCUAGAACUAGCUUUAGGGUAGUGCCAGACAAACAUAUGAUAUCAUGGUGUAAAAAAAGAAACACAUGCGUGCAGACACA` — result for “RBNS enrichment (R)”: 0.208.
Under “RBNS enrichment (R)”, `AUCUUAAAACUACAAGUUGUAAGUAUUCUGAAAUUGGGAAACAUUUAUUUUAAAUGCAAUCAGGUAGUGUUGCUUUUUACAGCAUAAUAAAUAUAUGUAUCAAAAAAAAA` is recorded as 0.438.
`AAAUGAGAAUUACUUGGUAUUAUUUUGGUCUGUGGCUUCUAAGAUUUUUUAAAAUACAUGAAAAAUGUAGUAAAUCACUAAAAUUCAUUUAUCCUUCUCCUUUGAAAGAU`: “RBNS enrichment (R)” 0.632.
`UCAAUUUUCCAGUUUGAUUGAAGUGCAGAGAAAAAUCCCUUAGAUUGCAAAAUAAAAUAGUUGAACUCUCUGUCUUCAUGUGGAAGGUUUAGAGCAGUUGUGAGAUGCUG`: “RBNS enrichment (R)” 1.2.

Block 2 — method: RNA Bind-n-Seq; molecule type: RNA; sample: in vitro; concentration: 200 nM; notes: whole 134-nt RNA, ends assumed; together with: 150 mM KCl; baseline: input library; reading: higher = stronger binding
Target: Ras GTPase-activating protein-binding protein 1, full length (G3BP1, Homo sapiens, UniProt Q13283)
Chain of UniProt Q13283 (whole entry, looked up): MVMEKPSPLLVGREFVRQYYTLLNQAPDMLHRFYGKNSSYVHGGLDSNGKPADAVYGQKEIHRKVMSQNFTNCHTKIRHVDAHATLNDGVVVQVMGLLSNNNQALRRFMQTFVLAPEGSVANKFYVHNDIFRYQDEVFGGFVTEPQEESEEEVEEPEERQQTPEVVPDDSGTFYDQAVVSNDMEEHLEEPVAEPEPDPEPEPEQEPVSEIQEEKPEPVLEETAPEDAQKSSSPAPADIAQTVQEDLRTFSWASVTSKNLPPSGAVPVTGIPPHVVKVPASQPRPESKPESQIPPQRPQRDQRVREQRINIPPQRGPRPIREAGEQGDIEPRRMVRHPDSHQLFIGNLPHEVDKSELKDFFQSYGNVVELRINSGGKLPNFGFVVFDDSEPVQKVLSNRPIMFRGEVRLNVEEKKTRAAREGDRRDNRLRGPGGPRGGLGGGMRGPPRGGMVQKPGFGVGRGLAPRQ
Constant ends, left off below: GGGAGUUCUACAGUCCGACGAUC … UGGAAUUCUCGGGUGUCAAGG
For `CCUCAAGUCCUGUGCUACACAUCGUAUGUACCGAAUCGGUGGAAAGGAAAGGAAAGUAUUAUGUUACGCCGUUCGGAUCUGCACUUCCAG`, the log2 enrichment was -0.132.
`AAGUCCUGUGCUACACAUCGUAUGUACCGAAUCGGAAAAAGGUUUUUUUGGAAAGGAAAGUAUUAUGUUACGCCGUUCGGAUCUGCACUU` gave a log2 enrichment of -1.77.
`CUCAAGUCCUGUGCUACACAUCGUAUGUACCGAAUCGGAAAGGAGGAAAAAGGAAAGUAUUAUGUUACGCCGUUCGGAUCUGCACUUCCA` has a log2 enrichment of -0.356.
For `CCUGUGCUACACAUCGUAUGUACCGAAUCAAAUUUUUUUAAAUUUUUUUAAACCCCCAAAAAAGUAUUAUGUUACGCCGUUCGGAUCUGC`, the log2 enrichment was -0.0897.
With `CUGUGCUACACAUCGUAUGUACCGAAUCGGCCCCCCCGGGCCCCCCCGGGCCCCCCCGGGGAAAGUAUUAUGUUACGCCGUUCGGAUCUG` the log2 enrichment was -0.982.
`UCAAGUCCUGUGCUACACAUCGUAUGUACCGAAUCGGGCCGGGCCGGGGCCGGGAAAGUAUUAUGUUACGCCGUUCGGAUCUGCACUUCC` gave a log2 enrichment of 0.3.
With `CAAGUCCUGUGCUACACAUCGUAUGUACCGAAUCGGUUUGGGGUUUGGGGUUUGGAAAGUAUUAUGUUACGCCGUUCGGAUCUGCACUUC` the log2 enrichment was -0.345.
`CACAGACAACACACACCCACACAGACACAGAGGGAAGGGGUUGGGAUGGGGACAGGGUGCACAGCAGGGCGGGGUAGGACCCCAGCCCCU` gave a log2 enrichment of 1.28.
`GCAGGAAGUAAAAACAAAUGGAAAUGCUUCGGAUAUUGGCAGGGGUGGGGGUUGCUAAGGAAAGGGUGGGAUGGGAGUGGGUAAAGAGUU` has a log2 enrichment of 1.66.
`CAAGUCCUGUGCUACACAUCGUAUGUACCGAAUCGGUUUGGGGUUUGGGGUUUGGGAAAGUAUUAUGUUACGCCGUUCGGAUCUGCACUU` has a log2 enrichment of -0.169.
`GUCCUGUGCUACACAUCGUAUGUACCGAAUCGGGGUGGGGUUUUUUUGGGGAAAGGGGAAAGUAUUAUGUUACGCCGUUCGGAUCUGCAC` has a log2 enrichment of 0.434.
`UCCUGUGCUACACAUCGUAUGUACCGAAUCGGGGAGGGGUUUUUGGGGUUUUUUUGGGGAAAGUAUUAUGUUACGCCGUUCGGAUCUGCA` gave a log2 enrichment of 0.645.
For `CACAGACAACACGCACCCACACAGACACAGAGGGAAGGGGUUGGGAUGGGGACAGGGUGCACAGCAGGGCGGGGUAGUACCCCAGCCCCU`, the log2 enrichment was 1.82.
`UCCUGUGCUACACAUCGUAUGUACCGAAUCGGGCCCCCCGGGCCCCCCGGGGCCCCCCGGAAAGUAUUAUGUUACGCCGUUCGGAUCUGC` has a log2 enrichment of -0.346.

Block 3 — method: competition protein-binding microarray; molecule type: double-stranded DNA, one strand shown; sample: in vitro; concentration: 2 µM; together with: Cbf1 competitor, 0.05 µM; reading: higher = stronger binding; constant ends, left off below: … GTCTTGATTCGCTTGACGCTGCTG
Target: Phosphate system positive regulatory protein PHO4, full length, GST-tagged (PHO4, Saccharomyces cerevisiae, UniProt P07270, residues 1-312)
Notes: whole 60-bp probe, lowest competitor level
Construct (chain): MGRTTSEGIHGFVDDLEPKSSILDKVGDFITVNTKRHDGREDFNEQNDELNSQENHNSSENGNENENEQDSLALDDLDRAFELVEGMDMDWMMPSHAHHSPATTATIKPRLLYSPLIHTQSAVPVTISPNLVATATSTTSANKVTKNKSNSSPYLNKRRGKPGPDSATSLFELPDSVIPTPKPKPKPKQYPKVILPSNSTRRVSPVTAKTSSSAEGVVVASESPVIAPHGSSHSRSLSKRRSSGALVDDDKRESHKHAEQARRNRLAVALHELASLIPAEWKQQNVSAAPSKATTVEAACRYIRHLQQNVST
`CTTCTGTAAATTTTTCACGTGCACTGACGCGCCCCG` gave a fluorescence intensity of 15300 a.u.
For `AGGTGCCTTCGGTAACATGTGTCTTGGTGGTCGTAT`, the fluorescence intensity was 11300 a.u.
`AAATTACTAAGTTGGTATGTGGGTGACGCCGTATGA` has a fluorescence intensity of 4760 a.u.
`AAATCATGAGAAGCGCACATGTCGAGATATCAATAG` gave a fluorescence intensity of 13300 a.u.
The fluorescence intensity of `CGGGGTTAAGTTTGCACTGTGGGTGGCTTGCAGCAG` is reported as 5050 a.u.
`CCAACCTGGCTTGCCCACGAGGATGGCTTTCTGGCT` gave a fluorescence intensity of 13200 a.u.
`GGATCTTTGAAAGCAGCCGTGCCGATATACACAGTA` has a fluorescence intensity of 4820 a.u.
With `CTTCTGTAAATTTGTCACGAGACTTGACGCGCCCCG` the fluorescence intensity was 6650 a.u.
The fluorescence intensity of `AAATATTAGGGACAGTGCGTGCCGACCCATAAGTTG` is reported as 8990 a.u.
`TAGTCGGAGTAGGCACACAATTCAGGGTTGTTGATC` gave a fluorescence intensity of 4430 a.u.
For `TTGCTCGAACATTGTCATGTGATGCTAAACATTGTA`, the fluorescence intensity was 6860 a.u.
The fluorescence intensity of `CGTTTCATTCAAGAGGGCGTGCATCCGCGGATCATC` is reported as 7840 a.u.
The fluorescence intensity of `CGTCCTAGTGATTGTCGTGTGGGTGCCATGAGGAAG` is reported as 7680 a.u.
The fluorescence intensity of `TGCGAAATTTGAGTACACGTGAGTCAGTCAGTCGGC` is reported as 13000 a.u.
`AGAAAGGTAGTGTCCCACGTCAGTAGAACCATGCGC` has a fluorescence intensity of 5910 a.u.
For `AGGACGACTGCTTTACTCGTGAAAATGGAACACAAG`, the fluorescence intensity was 4770 a.u.
With `CATACCCAACCTTGAGTAGTGGGTGAAGATATTTGT` the fluorescence intensity was 4630 a.u.
For `CTAACGAAGGTTTGACTCGTGGGTGACAAGCCAAGT`, the fluorescence intensity was 9590 a.u.
With `TTTAATTTAATTCGGCATGTGGCCGGCAGGGTAATG` the fluorescence intensity was 8600 a.u.
For `ATTAGTAATAGCCATCACGTGATGGTCCCTGGAAAG`, the fluorescence intensity was 12900 a.u.
With `TTCAACTCACATTTGCACGATGCAAGCCAATGGAAA` the fluorescence intensity was 10300 a.u.
For `CAGTGGAATCTTCATCACATGCTCGAACCGGCTTGA`, the fluorescence intensity was 8950 a.u.
`CACTACGGAAGAAGCGTCGTGGCCGGATGGAAAGCA` has a fluorescence intensity of 6830 a.u.
`GAGCAGTTCTGTAACCAGATCTCTTGTGTTGCTTGG` gave a fluorescence intensity of 2690 a.u.

Block 4 — target: CCNB3, cyclin fold, Cln2 fusion (human); method: yeast growth competition, sequencing; sample: yeast; notes: weak parent motif; baseline: not given; reading: higher = stronger binding
Parent: RB1 docking peptide (human); PKPLKKLRFDIEG; partner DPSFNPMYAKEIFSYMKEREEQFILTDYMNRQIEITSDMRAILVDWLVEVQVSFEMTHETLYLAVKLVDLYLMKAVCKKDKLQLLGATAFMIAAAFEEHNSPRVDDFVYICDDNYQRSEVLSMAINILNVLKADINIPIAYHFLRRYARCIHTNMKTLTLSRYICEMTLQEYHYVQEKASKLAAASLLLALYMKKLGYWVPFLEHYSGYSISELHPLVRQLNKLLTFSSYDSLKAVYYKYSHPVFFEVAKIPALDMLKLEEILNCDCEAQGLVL
For `K2A`, “normalised enrichment score” read 0.0641.
For `K5D`, “normalised enrichment score” read 0.056.
Under “normalised enrichment score”, `P3W` is recorded as 0.64.
Under “normalised enrichment score”, `L7K` is recorded as 0.207.
`R8A`: “normalised enrichment score” 0.234.
Under “normalised enrichment score”, `K5N` is recorded as -0.128.
`P1I` — result for “normalised enrichment score”: -0.0262.
Under “normalised enrichment score”, `F9Q` is recorded as 0.326.
`E12M`: “normalised enrichment score” -0.0548.
For `I11V`, “normalised enrichment score” read -0.058.
Under “normalised enrichment score”, `D10V` is recorded as 0.345.
For `L4P`, “normalised enrichment score” read 0.23.
`P3L` — result for “normalised enrichment score”: 0.178.
For `L7E`, “normalised enrichment score” read -0.0875.
`G13Q`: “normalised enrichment score” 0.554.
Under “normalised enrichment score”, `K6F` is recorded as 0.0103.
For `F9C`, “normalised enrichment score” read -0.0176.
Under “normalised enrichment score”, `G13P` is recorded as 0.191.
`L7V` — result for “normalised enrichment score”: 0.342.
`P1M`: “normalised enrichment score” -0.176.
`K5R F9L` — result for “normalised enrichment score”: -0.0991.
For `D10K`, “normalised enrichment score” read 0.15.
`I11W`: “normalised enrichment score” 0.0192.
`L4H` — result for “normalised enrichment score”: -0.327.
`E12N`: “normalised enrichment score” 0.0878.

Some of these lines once more (block 3):
For `AGGTGCCTTCGGTAACATGTGTCTTGGTGGTCGTAT`, the fluorescence intensity was 11300 a.u.
`AAATTACTAAGTTGGTATGTGGGTGACGCCGTATGA` has a fluorescence intensity of 4760 a.u.
`AAATCATGAGAAGCGCACATGTCGAGATATCAATAG` gave a fluorescence intensity of 13300 a.u.
The fluorescence intensity of `CGGGGTTAAGTTTGCACTGTGGGTGGCTTGCAGCAG` is reported as 5050 a.u.
`CCAACCTGGCTTGCCCACGAGGATGGCTTTCTGGCT` gave a fluorescence intensity of 13200 a.u.
`GGATCTTTGAAAGCAGCCGTGCCGATATACACAGTA` has a fluorescence intensity of 4820 a.u.
